# Results pooled from the literature.
# Every numbered part comes from another study and shows a few of its results, in no order.
# Sequence of UniProt Q92985 (whole entry, unmodified, looked up): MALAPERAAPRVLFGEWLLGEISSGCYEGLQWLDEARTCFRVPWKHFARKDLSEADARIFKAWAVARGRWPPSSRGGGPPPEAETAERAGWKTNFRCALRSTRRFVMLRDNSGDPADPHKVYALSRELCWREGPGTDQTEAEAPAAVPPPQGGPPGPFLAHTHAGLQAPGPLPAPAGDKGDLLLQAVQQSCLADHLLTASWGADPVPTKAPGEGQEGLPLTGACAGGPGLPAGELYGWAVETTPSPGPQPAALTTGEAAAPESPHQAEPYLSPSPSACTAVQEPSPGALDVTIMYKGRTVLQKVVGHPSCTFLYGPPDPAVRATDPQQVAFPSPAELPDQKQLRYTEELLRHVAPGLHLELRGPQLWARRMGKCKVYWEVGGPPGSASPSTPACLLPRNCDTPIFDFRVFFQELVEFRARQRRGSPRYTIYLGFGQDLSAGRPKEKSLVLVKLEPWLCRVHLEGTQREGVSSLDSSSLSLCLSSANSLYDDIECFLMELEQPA

# Set 1 — method: universal PBM; molecule type: double-stranded DNA, one strand shown; medium: in vitro; tested at: not given; direction: higher = stronger binding
# Target: Sal-like protein 4, full length isoform B (SALL4, Homo sapiens, UniProt Q9UJQ4-2, residues 1-616)
# Notes: 8-mer, flanks averaged, mean of replicates
Strand,E-score
GGAAGCAA,-0.0407
CCCTTTCC,-0.246
AGCCATCC,-0.324

# Set 2 — method: protein binding microarray; molecule type: double-stranded DNA, one strand shown; medium: in vitro; tested at: not given; relative to: not given; direction: higher = stronger binding
# Target: Histone acetyltransferase KAT6A, both winged helices, GST fusion (KAT6A, Homo sapiens, UniProt Q92794, residues 1-181)
# Notes: 8-mer, flanks averaged, mean of 2 arrays, mostly near background
# Residues (chain): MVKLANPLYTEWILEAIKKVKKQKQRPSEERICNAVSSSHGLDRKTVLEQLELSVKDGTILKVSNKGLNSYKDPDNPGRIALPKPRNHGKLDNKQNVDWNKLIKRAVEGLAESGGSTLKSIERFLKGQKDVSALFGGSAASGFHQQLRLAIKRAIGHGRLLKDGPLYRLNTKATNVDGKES
Strand,E-score
CACCCTCA,-0.285
AACAGGTT,-0.168
ACCCCCAC,-0.122
ATGGGATC,-0.0272
CTTCCAGC,-0.0273

# Single results of other studies
# IRF5 K96S/S451D/S453D/S456D/S462D full length, phosphomimetic: Interferon regulatory factor 5, full length, phosphomimetic (IRF5, Homo sapiens, UniProt Q13568-2, residues 1-514, K96S/S451D/S453D/S456D/S462D)
Substance,target,test,system,conditions,how to read,measurement,result
GCCTAGCACGACGACCTGGGGTATCGAGACGTGCTAGTCTTGATTCGCTTGACGCTGCTG,"IRF5 K96S/S451D/S453D/S456D/S462D full length, phosphomimetic",protein-binding microarray,"double-stranded DNA, one strand shown, in vitro","250 nM, 60-bp whole probe, with: salmon DNA 0.4 mg/ml","relative to: random background probes, higher = stronger binding",log fluorescence,0.178 z-score
"PhoQ, residues 284 288 289 292 302 303 TAVSDG","PhoP, residues 12 14 15 18 19 AGCRL (Escherichia coli, UniProt P23836)","Sort-seq, item: YFP reporter",E. coli,"PhoQ-PhoP variant library, with: 10 µM Mg2+","relative to: high Mg2+ state, higher = stronger signaling",fold induction,12.8
GCCTAGCACGACGATCTTAGTATCGAGACGTGCTAGGTCTTGATTCGCTTGACGCTGCTG,"Interferon regulatory factor 7, full length, phosphomimetic (IRF7, Homo sapiens, UniProt Q92985, residues 1-503, S471D/S472D/S475D/S476D/S477D/S483D/S484D/S487D)",protein-binding microarray,"double-stranded DNA, one strand shown, in vitro","2200 nM top, 60-bp whole probe, with: salmon DNA 0.4 mg/ml","relative to: random background probes, higher = stronger binding",fitted relative affinity,0.103 z-score
GCCTAGCACTTAGATTTCAGTATCGATAAGTGCTAGGTCTTGATTCGCTTGACGCTGCTG,"IRF5 K96S/S451D/S453D/S456D/S462D full length, phosphomimetic",protein-binding microarray,"double-stranded DNA, one strand shown, in vitro","250 nM, 60-bp whole probe, with: salmon DNA 0.4 mg/ml","relative to: random background probes, higher = stronger binding",log fluorescence,7.95 z-score

# Repeated from above (set 1):
Strand,E-score
CCCTTTCC,-0.246
